Measurements gathered from unrelated publications.
A part holds a random share of what one study measured. “And” joins repeats or separate records; there may be more than shown. pIC50: −log10 of the molar value.
Sequence of UniProt Q9NY57 (whole entry, looked up): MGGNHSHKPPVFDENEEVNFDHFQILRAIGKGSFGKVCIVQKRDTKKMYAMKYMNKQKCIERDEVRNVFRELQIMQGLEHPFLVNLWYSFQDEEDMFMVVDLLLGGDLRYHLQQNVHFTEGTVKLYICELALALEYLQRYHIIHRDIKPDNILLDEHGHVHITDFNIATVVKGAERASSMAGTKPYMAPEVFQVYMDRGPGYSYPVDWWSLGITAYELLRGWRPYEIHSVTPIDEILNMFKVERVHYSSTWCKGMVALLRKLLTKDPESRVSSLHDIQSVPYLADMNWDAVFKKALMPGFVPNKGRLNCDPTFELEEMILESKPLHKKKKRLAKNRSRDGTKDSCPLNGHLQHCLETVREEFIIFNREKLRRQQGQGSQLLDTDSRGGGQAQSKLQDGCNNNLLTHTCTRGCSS
Sequence of UniProt Q12852 (whole entry, looked up): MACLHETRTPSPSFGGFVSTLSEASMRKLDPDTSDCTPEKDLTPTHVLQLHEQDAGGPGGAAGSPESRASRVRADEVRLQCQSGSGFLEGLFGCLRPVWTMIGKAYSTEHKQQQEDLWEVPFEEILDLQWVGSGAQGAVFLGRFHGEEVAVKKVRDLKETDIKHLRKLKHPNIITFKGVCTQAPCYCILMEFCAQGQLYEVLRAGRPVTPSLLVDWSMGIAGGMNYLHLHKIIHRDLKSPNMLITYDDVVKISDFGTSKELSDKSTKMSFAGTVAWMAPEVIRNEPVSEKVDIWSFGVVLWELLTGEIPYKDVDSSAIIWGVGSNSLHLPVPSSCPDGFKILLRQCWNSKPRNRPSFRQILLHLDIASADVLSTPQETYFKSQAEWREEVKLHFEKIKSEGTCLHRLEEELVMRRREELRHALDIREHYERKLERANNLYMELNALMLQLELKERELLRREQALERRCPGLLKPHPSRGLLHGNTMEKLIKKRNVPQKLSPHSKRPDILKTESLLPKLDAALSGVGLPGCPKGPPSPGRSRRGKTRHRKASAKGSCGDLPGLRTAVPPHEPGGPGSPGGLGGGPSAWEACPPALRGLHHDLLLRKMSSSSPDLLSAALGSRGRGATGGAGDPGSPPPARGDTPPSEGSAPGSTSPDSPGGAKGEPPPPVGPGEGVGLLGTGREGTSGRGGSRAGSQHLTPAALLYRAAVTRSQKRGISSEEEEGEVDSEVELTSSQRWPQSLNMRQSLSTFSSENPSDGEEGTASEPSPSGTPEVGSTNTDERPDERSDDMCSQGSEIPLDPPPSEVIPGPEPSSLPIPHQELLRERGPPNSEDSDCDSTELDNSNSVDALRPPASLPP

Series 1 — observed: enzyme activity; action: inhibitor; tested at: 77 µM; relative to: untreated
Target: DNA polymerase theta, ATPase domain (POLQ, Homo sapiens, UniProt O75417)
Sequence of UniProt O75417 (whole entry, unmodified, looked up): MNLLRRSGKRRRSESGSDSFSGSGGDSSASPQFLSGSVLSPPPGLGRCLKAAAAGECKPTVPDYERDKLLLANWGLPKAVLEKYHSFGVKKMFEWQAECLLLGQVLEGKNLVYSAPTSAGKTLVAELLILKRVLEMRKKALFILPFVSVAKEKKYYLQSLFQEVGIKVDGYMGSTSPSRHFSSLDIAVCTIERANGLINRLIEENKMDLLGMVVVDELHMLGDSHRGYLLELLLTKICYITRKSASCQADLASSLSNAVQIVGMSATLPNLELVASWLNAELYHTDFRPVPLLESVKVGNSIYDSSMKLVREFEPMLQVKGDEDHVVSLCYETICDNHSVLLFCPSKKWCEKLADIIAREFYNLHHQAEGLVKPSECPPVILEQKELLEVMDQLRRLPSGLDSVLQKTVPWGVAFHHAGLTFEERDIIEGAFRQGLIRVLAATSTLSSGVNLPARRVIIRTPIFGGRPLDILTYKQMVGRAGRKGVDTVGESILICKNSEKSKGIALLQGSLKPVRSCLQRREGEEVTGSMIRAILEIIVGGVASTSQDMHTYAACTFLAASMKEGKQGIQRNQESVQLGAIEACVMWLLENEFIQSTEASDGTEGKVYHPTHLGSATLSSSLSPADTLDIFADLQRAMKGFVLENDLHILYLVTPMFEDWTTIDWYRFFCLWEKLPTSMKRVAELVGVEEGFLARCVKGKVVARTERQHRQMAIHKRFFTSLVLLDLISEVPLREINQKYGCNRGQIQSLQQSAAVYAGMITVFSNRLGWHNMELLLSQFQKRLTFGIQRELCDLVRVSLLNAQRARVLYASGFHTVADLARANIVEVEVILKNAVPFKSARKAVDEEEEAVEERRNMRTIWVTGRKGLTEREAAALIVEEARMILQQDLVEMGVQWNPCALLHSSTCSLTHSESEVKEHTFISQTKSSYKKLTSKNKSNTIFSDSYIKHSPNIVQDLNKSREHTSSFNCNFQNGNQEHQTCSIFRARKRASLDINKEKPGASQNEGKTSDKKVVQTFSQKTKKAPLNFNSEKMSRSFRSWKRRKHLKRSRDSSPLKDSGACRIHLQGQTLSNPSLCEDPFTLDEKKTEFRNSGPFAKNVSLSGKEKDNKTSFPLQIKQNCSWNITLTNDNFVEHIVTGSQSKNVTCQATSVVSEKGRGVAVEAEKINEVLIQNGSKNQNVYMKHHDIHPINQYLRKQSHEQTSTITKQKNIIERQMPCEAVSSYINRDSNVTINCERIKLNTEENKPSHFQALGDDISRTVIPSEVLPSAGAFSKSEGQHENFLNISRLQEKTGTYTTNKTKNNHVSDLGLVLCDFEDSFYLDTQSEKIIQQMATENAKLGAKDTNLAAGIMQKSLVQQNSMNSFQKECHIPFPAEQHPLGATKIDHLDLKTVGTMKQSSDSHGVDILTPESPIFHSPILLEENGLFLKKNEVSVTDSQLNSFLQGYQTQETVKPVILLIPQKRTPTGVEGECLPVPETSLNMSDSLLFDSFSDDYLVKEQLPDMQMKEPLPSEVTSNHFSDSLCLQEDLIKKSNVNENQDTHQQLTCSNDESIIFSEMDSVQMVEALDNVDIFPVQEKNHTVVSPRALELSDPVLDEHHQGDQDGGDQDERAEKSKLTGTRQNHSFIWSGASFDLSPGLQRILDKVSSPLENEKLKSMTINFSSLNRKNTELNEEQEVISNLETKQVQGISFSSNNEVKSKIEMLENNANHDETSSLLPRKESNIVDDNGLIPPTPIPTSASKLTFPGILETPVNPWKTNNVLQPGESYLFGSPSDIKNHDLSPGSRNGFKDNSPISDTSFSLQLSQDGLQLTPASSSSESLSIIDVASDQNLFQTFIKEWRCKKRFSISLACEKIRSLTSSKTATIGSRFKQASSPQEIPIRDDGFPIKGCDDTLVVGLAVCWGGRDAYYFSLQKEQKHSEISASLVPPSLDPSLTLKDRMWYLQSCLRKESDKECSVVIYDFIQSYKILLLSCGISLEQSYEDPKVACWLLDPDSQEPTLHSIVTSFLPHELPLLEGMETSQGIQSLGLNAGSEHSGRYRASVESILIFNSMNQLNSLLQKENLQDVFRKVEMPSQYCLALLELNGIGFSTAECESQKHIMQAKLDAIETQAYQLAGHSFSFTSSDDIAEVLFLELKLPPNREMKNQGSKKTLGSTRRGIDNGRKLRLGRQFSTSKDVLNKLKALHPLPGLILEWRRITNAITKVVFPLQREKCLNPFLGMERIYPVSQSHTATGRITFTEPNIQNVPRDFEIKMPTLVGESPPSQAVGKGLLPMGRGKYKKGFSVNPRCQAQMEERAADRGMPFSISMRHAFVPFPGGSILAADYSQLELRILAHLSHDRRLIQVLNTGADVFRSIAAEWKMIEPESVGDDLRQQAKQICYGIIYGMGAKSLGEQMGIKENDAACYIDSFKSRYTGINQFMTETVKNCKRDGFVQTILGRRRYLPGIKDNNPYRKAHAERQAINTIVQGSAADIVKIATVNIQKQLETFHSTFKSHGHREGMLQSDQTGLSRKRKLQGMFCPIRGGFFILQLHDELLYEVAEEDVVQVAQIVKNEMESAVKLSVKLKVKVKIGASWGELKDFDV
SMILES | remaining activity
Oc1ccc(C2CNCc3sccc32)cc1O (centres unmarked) | 104%
NC(=NCCCCCCN=C(N)/N=C(\N)Nc1ccc(Cl)cc1)/N=C(\N)Nc1ccc(Cl)cc1 | 132% and 101%
CCC(C)(C)c1ccc(CC(C)CN2C[C@@H](C)O[C@@H](C)C2)cc1 (some centres unmarked) | 101%
Nc1ncnc2c1ncn2[C@@H]1O[C@H](COP(=O)(O)OP(=O)(O)OP(=O)(O)OP(=O)(O)OC[C@H]2O[C@@H](n3cnc4c(N)ncnc43)[C@H](O)[C@@H]2O)[C@@H](O)[C@H]1O | 99.2%

Series 2 — organism: Sarcocystis neurona; observed: parasite growth; tested at: 10 µM; time: 96 h
Compound | inhibition
CC(C)NCC(O)COc1ccc(COCCOC(C)C)cc1 (centres unmarked) | -13.7%
CC(=O)CC(c1ccccc1)c1c(O)c2ccccc2oc1=O (centres unmarked) | -13.8%
O=C1N[C@H](C(=O)O)CS1 | -6%

Series 3 — tested at: 1 µM
Compound: CN(c1ccnc(CNc2nc(Nc3ccc4c(c3)CC(=O)N4)ncc2C(F)(F)F)n1)S(C)(=O)=O
target | observed | technique | remaining binding [%]
NT-3 growth factor receptor (NTRK3, Homo sapiens, UniProt Q16288) | cell-free assay | competition with immobilised ligand | 45
Serine/threonine-protein kinase 16 (STK16, Homo sapiens, UniProt O75716) | binding | competition with immobilised ligand | 1.5
Receptor-type tyrosine-protein kinase FLT3 (FLT3, Homo sapiens, UniProt P36888, F691L/ITD) | cell-free assay | competition with immobilised ligand | 0
Tyrosine-protein kinase FRK (FRK, Homo sapiens, UniProt P42685) | cell-free assay | competition with immobilised ligand | 93
Serine/threonine-protein kinase MAK (MAK, Homo sapiens, UniProt P20794) | cell-free assay | competition with immobilised ligand | 100
Mitogen-activated protein kinase 1 (MAPK1, Homo sapiens, UniProt P28482) | cell-free assay | competition with immobilised ligand | 70
Serine/threonine-protein kinase tousled-like 2 (TLK2, Homo sapiens, UniProt Q86UE8) | cell-free assay | competition with immobilised ligand | 100
Calcium/calmodulin-dependent protein kinase type 1G (CAMK1G, Homo sapiens, UniProt Q96NX5) | cell-free assay | competition with immobilised ligand | 95
Fibroblast growth factor receptor 3 (FGFR3, Homo sapiens, UniProt P22607) | cell-free assay | competition with immobilised ligand | 71
Phosphatidylinositol 4-phosphate 5-kinase type-1 gamma (PIP5K1C, Homo sapiens, UniProt O60331) | cell-free assay | competition with immobilised ligand | 91
Serine/threonine-protein kinase RIO1 (RIOK1, Homo sapiens, UniProt Q9BRS2) | cell-free assay | competition with immobilised ligand | 9.7
Serine/threonine-protein kinase 17A (STK17A, Homo sapiens, UniProt Q9UEE5) | cell-free assay | competition with immobilised ligand | 11
eIF-2-alpha kinase GCN2, C-terminal kinase domain (EIF2AK4, Homo sapiens, UniProt Q9P2K8, S808G) | cell-free assay | competition with immobilised ligand | 6.7
Casein kinase I isoform gamma-3 (CSNK1G3, Homo sapiens, UniProt Q9Y6M4) | cell-free assay | competition with immobilised ligand | 100
Phosphatidylinositol 4,5-bisphosphate 3-kinase catalytic subunit alpha isoform (PIK3CA, Homo sapiens, UniProt P42336, I800L) | cell-free assay | competition with immobilised ligand | 84
Activin receptor type-1-like (ACVRL1, Homo sapiens, UniProt P37023) | cell-free assay | competition with immobilised ligand | 100
Serine/threonine-protein kinase 32B (STK32B, Homo sapiens, UniProt Q9NY57) | cell-free assay | competition with immobilised ligand | 100
TGF-beta receptor type-1 (TGFBR1, Homo sapiens, UniProt P36897) | cell-free assay | competition with immobilised ligand | 44
Mast/stem cell growth factor receptor Kit, autoinhibited (KIT, Homo sapiens, UniProt P10721) | cell-free assay | competition with immobilised ligand | 52
Calcium/calmodulin-dependent protein kinase type II subunit gamma (CAMK2G, Homo sapiens, UniProt Q13555) | cell-free assay | competition with immobilised ligand | 100
Ribosomal protein S6 kinase alpha-6, N-terminal kinase domain (RPS6KA6, Homo sapiens, UniProt Q9UK32) | cell-free assay | competition with immobilised ligand | 4.6
Serine/threonine-protein kinase MRCK gamma (CDC42BPG, Homo sapiens, UniProt Q6DT37) | – | competition binding | 93
Mitogen-activated protein kinase kinase kinase 12 (MAP3K12, Homo sapiens, UniProt Q12852) | cell-free assay | competition with immobilised ligand | 48
Dual specificity tyrosine-phosphorylation-regulated kinase 2 (DYRK2, Homo sapiens, UniProt Q92630) | cell-free assay | competition with immobilised ligand | 37
Dual specificity testis-specific protein kinase 1 (TESK1, Homo sapiens, UniProt Q15569) | cell-free assay | competition with immobilised ligand | 97

Series 4 — observed: enzyme activity; action: inhibitor; tested at: 10 µM
Target: Calcium/calmodulin-dependent protein kinase type II subunit alpha (CAMK2A, Homo sapiens, UniProt Q9UQM7)
Sequence of UniProt Q9UQM7 (whole entry, looked up): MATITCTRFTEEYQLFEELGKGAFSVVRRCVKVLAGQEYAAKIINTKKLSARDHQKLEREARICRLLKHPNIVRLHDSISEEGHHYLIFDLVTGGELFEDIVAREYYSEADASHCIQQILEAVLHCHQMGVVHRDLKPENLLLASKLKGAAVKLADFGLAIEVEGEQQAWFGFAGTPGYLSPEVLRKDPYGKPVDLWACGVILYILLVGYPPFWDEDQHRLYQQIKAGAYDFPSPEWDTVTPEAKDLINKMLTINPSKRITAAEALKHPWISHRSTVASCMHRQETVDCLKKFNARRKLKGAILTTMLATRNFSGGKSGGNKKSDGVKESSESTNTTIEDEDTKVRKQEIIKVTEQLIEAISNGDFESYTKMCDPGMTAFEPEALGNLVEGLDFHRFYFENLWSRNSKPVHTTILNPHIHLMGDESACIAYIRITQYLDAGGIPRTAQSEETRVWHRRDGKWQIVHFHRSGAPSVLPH
Compound | inhibition [%]
C[C@H]1[C@H](C)CC[C@]2(C)CC[C@]3(C)C(=CC[C@@H]4[C@@]5(C)CC[C@@H](O)[C@](C)(C(=O)O)[C@@H]5CC[C@]43C)[C@H]12 | -16
CC1(C)CC[C@]2(C(=O)O)CC[C@]3(C)C(=CC[C@@H]4[C@@]5(C)CC[C@H](O)[C@@](C)(CO)[C@@H]5CC[C@]43C)[C@@H]2C1 | -52
CC(C)[C@H](C)[C@@H](O)[C@H](O)[C@@H](C)[C@H]1CC[C@H]2[C@@H]3COC(=O)[C@H]4C[C@H](O)[C@H](O)C[C@]4(C)[C@H]3CC[C@]12C | -15
OCCc1ccccc1 | 33
CCCCCCCCCCCCCCCCCCCCCC(=O)O[C@H]1CC[C@@]2(C)C(=CC[C@H]3[C@@H]4CC[C@H]([C@H](C)CCCC(C)C)[C@@]4(C)CC[C@@H]32)C1 | 27

Series 5 — action: antagonist
Target: Beta-1 adrenergic receptor (ADRB1, Homo sapiens, UniProt P08588)
Sequence of UniProt P08588 (whole entry, looked up): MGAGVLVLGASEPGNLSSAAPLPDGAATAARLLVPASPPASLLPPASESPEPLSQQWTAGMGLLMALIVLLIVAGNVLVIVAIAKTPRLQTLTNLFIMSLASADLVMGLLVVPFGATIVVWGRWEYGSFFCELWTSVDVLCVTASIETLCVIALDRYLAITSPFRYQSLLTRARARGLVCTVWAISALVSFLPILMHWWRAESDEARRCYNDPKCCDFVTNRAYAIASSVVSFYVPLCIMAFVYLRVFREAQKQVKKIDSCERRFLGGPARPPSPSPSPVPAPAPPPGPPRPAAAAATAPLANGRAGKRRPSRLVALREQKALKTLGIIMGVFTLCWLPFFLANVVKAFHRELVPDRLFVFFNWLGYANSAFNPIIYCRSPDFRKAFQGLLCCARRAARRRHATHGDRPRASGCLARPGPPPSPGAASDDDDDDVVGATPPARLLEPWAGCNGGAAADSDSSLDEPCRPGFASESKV
SMILES | pIC50
O=C(Nc1cccc(C(F)(F)F)c1)N[C@H]1CO[C@H]2[C@@H]1OC[C@@H]2Nc1nccc(-c2ccc(-c3ccccc3)cc2)n1 | ≤ 4.00
COc1ccccc1N1CCN(c2ncccc2CNC(=O)C2COC(=O)N2)CC1 (centres unmarked) | ≤ 4.00
Cc1noc2c(-c3cnn(Cc4ccccc4)c3)cc(-c3cccnc3)nc12 | ≤ 4.00
O=C(O)c1ccnc(-c2ccnc(NCC(O)c3ccccc3Cl)n2)c1 (centres unmarked) | ≤ 4.00

Series 6 — host: mouse; matrix: microsomes or S9; tested at: 2 µM; time: 0.5 h
Compound | remaining compound
O=C(c1ccccc1)c1ccccc1Nc1cccc2c1N(c1ncccn1)CC2 | 0.154%
CCn1nc(N2CCCC(NC(=O)c3cn[nH]c3)C2)ccc1=O (centres unmarked) | 48.1%
O=C(Nc1ccc(Oc2cccnc2)nc1)c1c[nH]c2ccccc12 | 76.3%
CC(CCc1ccco1)NC(=O)c1cc(S(=O)(=O)N(C)C)c(Cl)cc1Cl (centres unmarked) | 3.18%

Series 7 — observed: enzyme activity; tested at: 5 µM; relative to: untreated control
Compound: O=C(Nc1cnn(-c2csc(C(=O)NC3COC3)c2)c1)Nc1c(F)cccc1Cl
target | remaining activity [%]
Mitogen-activated protein kinase kinase kinase 20 (MAP3K20, Homo sapiens, UniProt Q9NYL2) | 88.5
Vascular endothelial growth factor receptor 2 (KDR, Homo sapiens, UniProt P35968) | 87.5
Serine/threonine-protein kinase DCLK1 (DCLK1, Homo sapiens, UniProt O15075) | 83.3
Vascular endothelial growth factor receptor 1 (FLT1, Homo sapiens, UniProt P17948) | 82.3
Tyrosine-protein kinase JAK2 (JAK2, Homo sapiens, UniProt O60674) | 88.1

Repeated from above (series 3):
target | observed | technique | remaining binding [%]
Receptor-type tyrosine-protein kinase FLT3 (FLT3, Homo sapiens, UniProt P36888, F691L/ITD) | cell-free assay | competition with immobilised ligand | 0
NT-3 growth factor receptor (NTRK3, Homo sapiens, UniProt Q16288) | cell-free assay | competition with immobilised ligand | 45
Activin receptor type-1-like (ACVRL1, Homo sapiens, UniProt P37023) | cell-free assay | competition with immobilised ligand | 100
